Measured values from different studies.
Compare with care: the assays were run in different laboratories. Several values in a cell are separate wells, animals, samples, runs or records.
Target: BMP-2-inducible protein kinase (BMP2K, Homo sapiens, UniProt Q9NSY1)

Structure (SMILES) | assay | test system | setting | how to read | measurement | value
C=CC(=O)N1CCCC(n2c(=O)c3ncccc3n(Cc3ccc(Oc4ccccc4)cc3)c2=O)C1 (centres unmarked) | cell-free assay, competition with immobilised ligand |  | 1 µM |  | remaining binding | 90%
Cc1ccc(-c2c(/C=C(\C#N)C(=O)NC(C)C)n(CCCO)c3ncnc(N)c23)cc1 | cell-free assay, competition with immobilised ligand |  | 1 µM |  | remaining binding | 73%
COc1c(Cl)cccc1Nc1c(-c2ccncc2C#C[C@@]2(C)CCCN2C(=O)/C=C/CN(C)C)[nH]c2c1C(=O)NCC2 | binding, competition with immobilised ligand |  | 3 µM |  | remaining binding | 88%
COc1cc(Nc2nc(C)cc(-c3cnn4nc(OC)ccc34)n2)cc(C(F)(F)F)c1 | KINOMEscan |  | 1 µM, BIKE | baseline: DMSO | remaining binding | 86%
CCn1cc(C(=O)O)c(=O)c2c(N)c(F)c(NC3CCCCC3)cc21 | kinase activity |  | 0.1 µM, with: ATP at Km |  | inhibition | -0.3%
C[C@]1(O)CCCN(c2nc(Nc3ccc(S(=O)(=O)N[C@H]4CC[C@H](CN5CCN(c6ccc(C7CCC(=O)NC7=O)cc6F)CC5)CC4)cc3)ncc2C(F)(F)F)C1 (some centres unmarked) | binding, competition with immobilised ligand |  | 1 µM |  | remaining binding | 0.3%
COc1cc(Nc2nccc(-c3cnn4nc(OC)ccc34)n2)cc(C(F)(F)F)c1 | binding, competition with immobilised ligand |  | 1 µM |  | remaining binding | 92%
CNC(=O)C1CCN(c2cc(C)c(F)cc2NC(=O)c2ccc(-c3cc(O)ccc3C)c(C)c2)CC1 | binding, competition with immobilised ligand |  | 1 µM |  | remaining binding | 100%
CCN1CCN(Cc2ccc(C(=O)Nc3ccc(C)c(NCc4cnc5[nH]ccc5c4OC)c3)cc2C(F)(F)F)CC1 | binding, competition with immobilised ligand |  | 1 µM |  | remaining binding | 88%
CC(C)=CC1OC(C)(C)C2C=C3C(=O)C(Cl)=CC(O)C3C3C(O)C4OC4C(=O)C132 (centres unmarked) | cell-free assay, competition with immobilised ligand |  | 10 µM |  | remaining binding | 86%
N[C@H]1CC[C@H](Nc2nccc(-c3cccnc3Oc3ccc(NC(=O)NC4CC4)c4ccccc34)n2)CC1 | kinobead competition pulldown | HEK293/HCT116 lysate mixture | 10 µM, 1 h, 4 °C | lower = stronger competition | log2 LFQ intensity | 27.3 and 27.5
Nc1ncc2c(n1)-c1c([nH]c3ccc(C4=CCOCC4)cc13)CCC2 | binding, competition with immobilised ligand |  | 1 µM |  | remaining binding | 100%
C=CC(=O)N1CCc2ccc(-n3c(=O)ccc4cnc5ccc(-c6cnn(C)c6)cc5c43)cc21 | KINOMEscan |  | 1 µM | baseline: DMSO control | remaining binding | 84%
Cc1cnc2nc1Nc1cccc(c1)COC/C=C/COCc1cc(ccc1OCCN1CCOCC1)N2 | binding, competition with immobilised ligand |  | 0.1 µM |  | remaining binding | 85%
Cc1c[nH]c2nccc(-c3ccc(C(=O)N[C@@H]4c5c(F)cc(C(F)F)cc5C[C@@H]4O)cn3)c12 | binding, competition with immobilised ligand |  | 3 µM |  | remaining binding | 12%
CNC1C[S+]2CC[S+]3CC[S+](C1)[Ru-4]321([N]=C=S)[n]2c3ccc(OC)cc3c3c4c(c5cc(F)c[n+]1c5c32)C(=O)NC4=O (centres unmarked) | KinomeScan |  | 0.1 µM | baseline: untreated | remaining binding | 100%
O=C(Cc1ccc(OCc2ccccc2)cc1)NC1(C(=O)O)CCN(C(=O)c2ccc(-c3cccc(Cl)c3)cc2)CC1 | enzyme activity, inhibitor |  | 10 µM |  | activity vs control | 94%

For quick reference, copied from above:
Structure (SMILES) | assay | test system | setting | how to read | measurement | value
COc1cc(Nc2nc(C)cc(-c3cnn4nc(OC)ccc34)n2)cc(C(F)(F)F)c1 | KINOMEscan |  | 1 µM, BIKE | baseline: DMSO | remaining binding | 86%
CCn1cc(C(=O)O)c(=O)c2c(N)c(F)c(NC3CCCCC3)cc21 | kinase activity |  | 0.1 µM, with: ATP at Km |  | inhibition | -0.3%
